Measurements pooled from the literature.
Parts stem from different laboratories: compare values within a part only. Substitutions count along the parent as printed.

Block 1
Target: HLA class I histocompatibility antigen, A alpha chain, allele A*25:01 (Homo sapiens, UniProt P04439)
Effect on: peptide-MHC binding
Form: peptide
Concentration: concentration not given
Sequence | binding
TEAEKWPFF | inactive
LTAPCDIYV | inactive
NTDEIPELI | inactive
KIVPLPPMY | inactive
DLAQDPMLI | inactive
KSWLVHWSL | inactive
LVAPHMAMM | inactive
FPHTELANL | inactive

Block 2
Target: UBE2W UBC core domain (UniProt Q96B02)
Technique: yeast two-hybrid
Sample: yeast
Notes: mostly zero background
Relative to: not given
Reading: higher = stronger interaction
B1: ZNRF4 RING domain (UniProt Q8WWF5); chain VRTFTWHNDLCAICLDEYEEGDQLKILPCSHTYHCKCIDPWFSQAPRRSCPVCKQSVAATEDSF
B2: ARIH2 RING domain (UniProt O95376); chain HVPTSHPPHHCAVCMQFVRKENLLSLACQHQFCRSCWEQHCSVLVKDGVGVGVSCMAQDCPLRTPEDFVF
B3: MKRN3 RING domain (UniProt Q13064); chain FAVQRGMDKVCGICMEVVYEKANPNDRRFGILSNCNHSFCIRCIRRWRSARQFENRIVKSCPQCRVTSELVIPSE
B4: RUFY1 RING domain (UniProt Q96T51); chain QALKGHAWLKDDEATHCRQCEKEFSISRRKHHCRNCGHIFCNTCSSNELALPSYPKPVRVCDSCHTLLLQRCSSTAS
B5: HLTF RING domain (UniProt Q14527); chain LILSSGSDEECAICLDSLTVPVITHCAHVFCKPCICQVIQNEQPHAKCPLCRNDIHEDNLLE
B6: BFAR RING domain (UniProt Q9NZS9); chain GPQISVSEFSCHCCYDILVNPTTLNCGHSFCRHCLALWWASSKKTECPECREKWEGFPKVS
Construct (chain): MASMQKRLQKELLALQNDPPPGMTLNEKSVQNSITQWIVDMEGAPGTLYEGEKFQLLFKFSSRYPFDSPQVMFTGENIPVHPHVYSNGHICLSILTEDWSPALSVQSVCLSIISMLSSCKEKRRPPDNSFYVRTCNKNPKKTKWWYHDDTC
Sequence | lacZ reporter activity
B1 (ZNRF4 RING domain) | 10400
B2 (ARIH2 RING domain) | 0
B3 (MKRN3 RING domain) | 0
B4 (RUFY1 RING domain) | 0
FDPPLESKYECPICLMALREAVQTPCGHRFCKACIIKSIRDAGHKCPVDNEILLENQLFP (TRAF6 RING domain (UniProt Q9Y4K3)) | 0
LEALSSDFLACKICLEQLRAPKTLPCLHTYCQDCLAQLADGGRVRCPECRETVPVPPEGV (TRIM56 RING domain (UniProt Q9BRZ2)) | 0
B5 (HLTF RING domain) | 0
B6 (BFAR RING domain) | 0

Block 3
Target: CCND3, cyclin fold, Cln2 fusion (human)
Technique: yeast growth competition, sequencing
Sample: yeast
Notes: weak parent motif
Relative to: not given
Reading: higher = stronger binding
Starting sequence: viral docking peptide; YKVKRRLVFGADD
Variant | normalised enrichment score
YKVKRRLRFGADD [V8R] | 0.0383
YKVKRRLVFGAVD [D12V] | 0.646
YKVKRRLVFGAED [D12E] | -0.244
YKVKRRLVWGADD [F9W] | 0.742
YKVKRVLVFGADD [R6V] | 0.17
YKVKRRLVRGADD [F9R] | 0.0733
YKVKRRLVFGYDD [A11Y] | 0.434
YKVKRRLVFGAFD [D12F] | 0.6

Further values, each from its own experiment
SMILES | organism | test | conditions | how to read | quantity | result
NC(=O)OCCCc1ccccc1 | Sarcocystis neurona | parasite growth | 10 µM, 96 h, second screen | relative to: untreated | log2 fold change | 0.12

Excerpt of the above (block 1):
Sequence | binding
NTDEIPELI | inactive
FPHTELANL | inactive
LVAPHMAMM | inactive
